Published values pooled from the literature.
Lines come from different studies, so protocols differ.
Sequence of UniProt P29323 (whole entry, looked up): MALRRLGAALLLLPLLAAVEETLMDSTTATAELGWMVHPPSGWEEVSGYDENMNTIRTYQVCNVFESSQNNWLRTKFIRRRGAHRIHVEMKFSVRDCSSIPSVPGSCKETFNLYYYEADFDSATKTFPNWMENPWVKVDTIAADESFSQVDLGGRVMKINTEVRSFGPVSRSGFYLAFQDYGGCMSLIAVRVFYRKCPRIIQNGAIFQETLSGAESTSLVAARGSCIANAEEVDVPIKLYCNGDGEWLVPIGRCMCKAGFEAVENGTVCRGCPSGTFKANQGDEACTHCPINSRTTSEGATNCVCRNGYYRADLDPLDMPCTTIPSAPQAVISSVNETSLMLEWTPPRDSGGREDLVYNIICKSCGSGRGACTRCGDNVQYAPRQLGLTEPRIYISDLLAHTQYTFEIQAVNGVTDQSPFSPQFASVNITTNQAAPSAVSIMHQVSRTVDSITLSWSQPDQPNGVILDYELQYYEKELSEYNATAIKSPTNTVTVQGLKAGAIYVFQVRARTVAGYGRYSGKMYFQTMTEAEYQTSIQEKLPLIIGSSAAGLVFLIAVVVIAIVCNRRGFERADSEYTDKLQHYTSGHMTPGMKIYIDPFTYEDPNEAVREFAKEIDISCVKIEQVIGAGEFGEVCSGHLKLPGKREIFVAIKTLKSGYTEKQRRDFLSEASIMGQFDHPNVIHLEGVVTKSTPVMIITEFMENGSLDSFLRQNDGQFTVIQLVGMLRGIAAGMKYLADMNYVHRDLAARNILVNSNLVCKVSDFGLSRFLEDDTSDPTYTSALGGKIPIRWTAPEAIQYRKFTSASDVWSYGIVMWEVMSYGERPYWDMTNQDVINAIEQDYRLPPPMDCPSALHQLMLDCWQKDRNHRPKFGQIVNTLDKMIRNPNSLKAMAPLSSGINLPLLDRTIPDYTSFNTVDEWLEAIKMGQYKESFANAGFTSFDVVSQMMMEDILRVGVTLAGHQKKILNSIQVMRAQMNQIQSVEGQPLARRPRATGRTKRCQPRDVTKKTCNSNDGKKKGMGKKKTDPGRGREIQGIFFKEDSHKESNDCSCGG
Sequence of UniProt Q13555 (whole entry, looked up): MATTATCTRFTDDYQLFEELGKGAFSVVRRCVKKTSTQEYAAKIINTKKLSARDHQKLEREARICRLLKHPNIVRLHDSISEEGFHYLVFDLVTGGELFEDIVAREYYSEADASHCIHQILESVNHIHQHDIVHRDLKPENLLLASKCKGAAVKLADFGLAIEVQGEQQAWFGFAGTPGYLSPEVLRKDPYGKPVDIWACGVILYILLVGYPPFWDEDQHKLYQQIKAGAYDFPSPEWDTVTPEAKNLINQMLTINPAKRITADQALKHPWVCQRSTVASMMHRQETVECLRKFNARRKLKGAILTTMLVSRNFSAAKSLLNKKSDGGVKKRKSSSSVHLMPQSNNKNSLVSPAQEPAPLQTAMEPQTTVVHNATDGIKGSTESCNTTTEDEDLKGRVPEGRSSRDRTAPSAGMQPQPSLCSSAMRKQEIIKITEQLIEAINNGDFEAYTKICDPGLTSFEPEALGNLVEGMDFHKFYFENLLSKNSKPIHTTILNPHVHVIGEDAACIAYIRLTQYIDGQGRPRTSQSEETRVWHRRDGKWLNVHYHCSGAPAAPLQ
Sequence of UniProt P51956 (whole entry, looked up): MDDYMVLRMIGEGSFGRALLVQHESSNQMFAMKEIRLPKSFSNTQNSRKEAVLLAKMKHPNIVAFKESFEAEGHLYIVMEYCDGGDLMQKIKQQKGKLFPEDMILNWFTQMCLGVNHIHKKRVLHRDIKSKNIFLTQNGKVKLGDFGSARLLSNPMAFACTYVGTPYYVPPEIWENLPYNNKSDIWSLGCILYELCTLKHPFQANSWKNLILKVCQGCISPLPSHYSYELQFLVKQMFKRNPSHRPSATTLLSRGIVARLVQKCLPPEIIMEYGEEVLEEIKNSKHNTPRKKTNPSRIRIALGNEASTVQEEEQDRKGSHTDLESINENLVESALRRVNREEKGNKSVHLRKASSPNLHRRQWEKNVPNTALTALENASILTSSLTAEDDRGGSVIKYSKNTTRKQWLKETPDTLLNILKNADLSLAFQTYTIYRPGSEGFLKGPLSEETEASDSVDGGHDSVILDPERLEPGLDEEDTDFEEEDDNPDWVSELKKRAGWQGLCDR

Compound	target	assay	conditions	quantity	result
COc1cc(-c2cncc3c2CN(C)Cc2cc(N4CCNCC4)ccc2-3)cc(OC)c1OC	EPHB2 (Homo sapiens, UniProt P29323)	enzyme activity, inhibitor	1 µM	remaining activity	92%
Cc1cc([C@@H](C)Nc2ccccc2C(=O)O)c2nc(N3CCC(F)(F)CC3)c(C#N)c(=O)n2c1	ERBB2 (Homo sapiens, UniProt P04626)	binding, competition with immobilised ligand	10 µM	remaining binding	100%
CNc1ncc2c(/C=C/C(=O)N3CCC(OC)CC3)nn(Cc3cccc(C(F)(F)F)c3)c2n1	CAMK2G (Homo sapiens, UniProt Q13555)	enzyme activity, inhibitor, radiometric	1 µM	remaining activity	97%
C=CC(=O)N1CCC(COCC(=O)N2CCN(c3nc(-c4cnc(N)nc4C(F)F)nc(N4CCOC[C@@H]4C)n3)CC2)CC1	NEK3 (Homo sapiens, UniProt P51956)	binding, competition with immobilised ligand	1 µM	remaining binding	96%
